Results pooled from the literature.
Parts stem from different laboratories: compare values within a part only.

Block 1
Target: RNA binding protein fox-1 homolog 2, RRM domain, GST-SBP tag (RBFOX2, Homo sapiens, UniProt O43251-10, residues 100-194)
Method: RNA Bind-n-Seq
Molecule type: RNA
Sample: in vitro
Tested at: 365 nM
Notes: natural RNA segment, single round, ends assumed
Reference: no-protein control
Direction: higher = stronger binding
All sequences stand within: GGGAGUUCUACAGUCCGACGAUC … UGGAAUUCUCGGGUGCCAA
Target sequence (chain): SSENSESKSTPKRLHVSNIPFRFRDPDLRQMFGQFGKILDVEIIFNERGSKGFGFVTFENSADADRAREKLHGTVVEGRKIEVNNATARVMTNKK
Under “RBNS enrichment (R)”, `GUUCUCUCCUGUGUAAAUGUCACGCCCCACCCCUGUUUCAUGUGGGCACUAACACGUGUGCGUUCCUGGCGGGCACACUCAGGACCGUGCCUCACAGGGCCCACUCCCUG` is recorded as 0.429.
For `UCUCUGUUCAGUGUGUCAGCUAUUUUGUGAAGAUGCUUAGAUGUAUAGUUUUGAUAACCACAGUUUUAAAUCUUUUAUCUGUGCAUAAUAAAAAGAUAUAUAUCAGUUAU`, “RBNS enrichment (R)” read 1.32.
`UGGCAUAAAAAUGUGAUACACUUAGAGACAUUUUGUUUAUUGCAUAUAAAUCUAAUUUUUCCAUAAAUUAGAUUUAUGAUAUUUUCAUAAAGCACUUGAUUAGUUUUUCA`: “RBNS enrichment (R)” 0.72.
For `AGGGCCCCAUCUCAGCAUCGUAGUUACAUAGUUGAUCUUAACUAAGCUUGGGAAUACGUCACCUGAGAUCACAGGUGAUCCAAGCCGCAGAUGUGACAGCUGGGCUCUGA`, “RBNS enrichment (R)” read 0.412.
Under “RBNS enrichment (R)”, `AUUUUUUAGGUUAACUGAGCUGCUUUGUGCUCAGAAUCUACAUUCCAGAUUGAGGAUUUAGUGUCUUAGGAAAUUUUUUUAAUUUUUUUUUUUUAAAGAAGAAAAAAAAC` is recorded as 1.33.
`CUUAAAACCUGGCUGGACCCCCAUGAGUCCACGCAGAGUCAAUAACUCACCUGUCAUGCUGUUCCCAGGAGGGACAGCUUGGUAGGAACUUUCUGGGGUUUGACUGUUAC` — result for “RBNS enrichment (R)”: 0.313.

Block 2
Target: Sal-like protein 4, full length isoform B (SALL4, Homo sapiens, UniProt Q9UJQ4-2, residues 1-616)
Method: universal PBM
Molecule type: double-stranded DNA, one strand shown
Sample: in vitro
Tested at: not given
Notes: 8-mer, flanks averaged, mean of replicates
Direction: higher = stronger binding
`ATACACGA` has an E-score of 0.0826.
With `AATAATAG` the E-score was 0.358.
`GAACCGTA` gave an E-score of -0.132.
`CAGAATGA` gave an E-score of 0.0758.
`AGCATGCG` gave an E-score of -0.0344.

Block 3
Target: Histone acetyltransferase KAT6A, winged helix 1, GST fusion (KAT6A, Homo sapiens, UniProt Q92794, residues 1-85)
Method: protein binding microarray
Molecule type: double-stranded DNA, one strand shown
Sample: in vitro
Tested at: not given
Notes: 8-mer, flanks averaged, mean of 2 arrays, mostly near background
Reference: not given
Direction: higher = stronger binding
Residues (chain): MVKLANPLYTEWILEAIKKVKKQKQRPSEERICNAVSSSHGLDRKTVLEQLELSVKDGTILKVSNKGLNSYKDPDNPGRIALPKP
For `GCCCCTGA`, the E-score was -0.0442.
For `CTCCTTGC`, the E-score was -0.162.
With `GTCCACTA` the E-score was -0.189.

Mixed results
The fold induction of `PhoQ, residues 284 288 289 292 302 303 AGHLVA` is reported as 1.26 (PhoP, residues 12 14 15 18 19 NIMAP (Escherichia coli, UniProt P23836); Sort-seq, item: YFP reporter; E. coli; PhoQ-PhoP variant library, together with: 10 µM Mg2+; reference: high Mg2+ state, higher = stronger signaling).

For quick reference, copied from above (block 3):
With `GTCCACTA` the E-score was -0.189.
For `GCCCCTGA`, the E-score was -0.0442.
